Measured values collected from several papers.
Protocols differ between the studies behind these lines.
Target: Dual specificity testis-specific protein kinase 1 (TESK1, Homo sapiens, UniProt Q15569)

Structure (SMILES)	assay	test system	setting	scale	quantity	result
Nc1ncc2c(n1)-c1c([nH]c3ccc(C4=CCOCC4)cc13)CCC2	binding, competition with immobilised ligand	–	1 µM	–	remaining binding	100%
C=CC(=O)N1CCc2ccc(-n3c(=O)ccc4cnc5ccc(-c6cnn(C)c6)cc5c43)cc21	KINOMEscan	–	1 µM	reference: DMSO control	remaining binding	100%
COc1c(Cl)cccc1Nc1c(-c2ccncc2C#C[C@@]2(C)CCCN2C(=O)/C=C/CN(C)C)[nH]c2c1C(=O)NCC2	binding, competition with immobilised ligand	–	3 µM	–	remaining binding	85%
Cc1cnc2nc1Nc1cccc(c1)COC/C=C/COCc1cc(ccc1OCCN1CCOCC1)N2	binding, competition with immobilised ligand	–	0.1 µM	–	remaining binding	100%
NC(=O)[C@@H](O)C[C@H]1CCc2sc3ncnc(O[C@H]4CC[C@H](N5CCOCC5)CC4)c3c21	enzyme activity, inhibitor	–	10 µM	–	inhibition	31%
COc1cc(Nc2nccc(-c3cnn4nc(OC)ccc34)n2)cc(C(F)(F)F)c1	binding, competition with immobilised ligand	–	1 µM	–	remaining binding	100%
Cc1ccc(C(=O)Nc2ccc(CN3CCN(C)CC3)c(C(F)(F)F)c2)cc1C#Cc1cnc2cccnn12	target engagement, NanoBRET	human cells	–	–	Hill slope	0.0346
Nc1ncc(-c2cc(-c3cnn(CC(F)(F)F)c3)ncc2F)nc1C(=O)NC1CNCC(F)C1 (stereo not drawn)	enzyme activity	–	1 µM	reference: DMSO control	remaining activity	98%
CNC1C[S+]2CC[S+]3CC[S+](C1)[Ru-4]321([N]=C=S)[n]2c3ccc(OC)cc3c3c4c(c5cc(F)c[n+]1c5c32)C(=O)NC4=O (stereo not drawn)	KinomeScan	–	0.1 µM	reference: untreated	remaining binding	100%

Repeated from above:
Structure (SMILES)	assay	test system	setting	scale	quantity	result
NC(=O)[C@@H](O)C[C@H]1CCc2sc3ncnc(O[C@H]4CC[C@H](N5CCOCC5)CC4)c3c21	enzyme activity, inhibitor	–	10 µM	–	inhibition	31%
